Measurements from different studies.
Each line is one published result; not all experiments were run side by side. “And” joins repeats or separate records; there may be more than shown. Numbers after ± are the reported error.

The CC50 of `Cc1cccc(F)c1NC(=O)CN1CCCC2=CC3CC(CN4CCCCC34)C21` (centres unmarked) is reported as > 267 µM (Huh-7; cytotoxicity).
For `COc1cc2c(c3oc(-c4ccccc4)cc(=O)c13)C=CC(C)(C)O2`, the viability was 103 ± 2.7% (differentiated SH-SY5Y; MTT; 1 µM; baseline: control).
`CCCCn1cc(C(=O)O)c(=O)c2cc(F)c(Nc3ccccc3Cl)c(N)c21` gave an IC50 of 10 µM and 10.1 µM (T47D; cell growth or viability, SRB).
`COC(=O)C1CN1S(=O)(=O)c1cccc(C(F)(F)F)c1` (centres unmarked) gave an IC50 of 450 ± 20 µM (Balb/c 3T3 fibroblasts; cytotoxicity, neutral red uptake; DMEM with 5% FBS; 24 h).
`COC(=O)[C@H](CO)NC(=O)[C@H](CCCCN(CC(C)C)C1CC2CCC1C2)NC(=O)[C@H](CCCN1CCOCC1)NC(=O)[C@H](NC(=O)[C@H](Cc1ccccc1)NC(=O)c1ccc(C(C)(C)C)cc1)C1CCC1` (some centres unmarked) has a DC50 of 6 ± 1.4 µM (mouse embryonic stem cells; cytotoxicity, CellTiter-Glo; 48 h).
For `CCCCn1cc(C(=O)O)c(=O)c2cc(F)c(Nc3cccc(Cl)c3)c([N+](=O)[O-])c21`, the IC50 was 17.6 ± 1.43 µg/mL (T47D; cell growth, SRB; 72 h).
`CCO[C@H]1[C@H](O)[C@@H](N)[C@@H](O[C@H]2[C@H](O[C@@H]3O[C@H](CO)[C@@H](O[C@H]4O[C@@H](CN)[C@@H](O)[C@H](O)[C@H]4N)[C@H]3O)[C@@H](O)[C@H](N)C[C@@H]2N)O[C@@H]1CO` — result for cytotoxicity: “not toxic” (NIH 3T3; alamarBlue; concentration not given).
With `CC[C@H](C)[C@H](NC(=O)[C@H](CCCCN)NC(=O)[C@H](CCCCN)NC(=O)[C@H](Cc1ccccc1)NC(=O)[C@H](CC(C)C)NC(=O)[C@H](CCCCN)NC(=O)[C@H](Cc1c[nH]c2ccccc12)NC(=O)[C@@H](CCCCN)NC(C)=O)C(=O)NCC(=O)N[C@@H](C)C(=O)N[C@H](C(=O)N[C@@H](CC(C)C)C(=O)N[C@H](CCCCN)C(=O)N[C@H](C(=O)N[C@@H](CC(C)C)C(N)=O)C(C)C)C(C)C` the viability decrease was ~80% (RAW264.7; MTT; up to 32 µM).
`CC[C@H](C)[C@H](NC(=O)[C@H](Cc1c[nH]c2ccccc12)NC(=O)[C@H](CCCNC(=O)c1ccc2c(c1)C1(OC2=O)c2ccc(O)cc2Oc2cc(O)ccc21)NC(=O)CNC(=O)[C@H]1CCCN1C(=O)[C@@H](NC(=O)[C@H](CCCNC(=N)N)NC(=O)[C@@H](NC(=O)[C@H](Cc1c[nH]c2ccccc12)NC(=O)[C@H](CCCN)NC(C)=O)C(C)C)C(C)C)C(=O)N[C@@H](CCCNC(=N)N)C(=O)N[C@@H](CCC(N)=O)C(N)=O` has a half-life of 630 min (OPM-2; peptidase degradation, capillary electrophoresis; cell lysate; 10 µM, pH 7.6, 37 °C).
`CC(=O)N(O)CCCP(=O)(O)O`: “relative cell count” 100% (L5178Y TK+/- mouse lymphoma; 2200 µg/mL, 4 h, without S9; baseline: vehicle).
`NC(=S)N/N=C/c1ccc(OCc2cccc(F)c2)cc1` — result for cytotoxicity: “not toxic” (IMR-32; MTT; concentration not given).
With `COc1c(C(=O)/C=C(\O)c2ccccc2)ccc2c1C=CC(C)(C)O2` the viability was 102 ± 1.2% (differentiated SH-SY5Y; MTT; 0.1 µM; baseline: control).
`Cc1ccc(S(=O)(=O)N2CC2C(=O)N(C)C)cc1` (centres unmarked) gave an IC50 of 93 ± 22 µM (Balb/c 3T3 fibroblasts; cytotoxicity, neutral red uptake; DMEM with 5% FBS; 24 h).
`CC(C)(O)c1cc2c(ccc3c(=O)cc(-c4ccccc4)oc32)o1` has a viability of 99.2 ± 4.1% (differentiated SH-SY5Y; MTT; 10 µM; baseline: control).
The IC50 of `CCCCn1cc(C(=O)O)c(=O)c2cc(F)c3c(nnn3-c3ccccc3Cl)c21` is reported as 15.6 ± 1.41 µg/mL (PANC-1; cell growth, SRB; 72 h).
The viability of `COc1c(C(=O)/C=C/c2ccccc2)ccc2occc12` is reported as 105 ± 3.5% (differentiated SH-SY5Y; MTT; 1 µM; baseline: control).
The IC50 of `COC1=C[C@@H]2[C@@H]3Cc4ccc(OC)c(OC(=O)[C@H](Cc5ccccc5)NC(=O)OC(C)(C)C)c4[C@]2(CCN3C)CC1=O` is reported as 29.6 ± 7.48 µM (RAW264.7; cytotoxicity, MTT; 24 h).
Under cytotoxicity, `CCc1nc2cc3ccccc3cc2cc1C(=O)N1CCC[C@H]1C(=O)N[C@@H](C/C=C/C[C@H](NC(=O)[C@@H]1CCCN1C(=O)c1cc2cc3ccccc3cc2nc1CC)C(=O)N[C@@H](CCCCN)C(=O)NCCCN)C(=O)N[C@@H](CCCCN)C(=O)NCCCN` is recorded as “not toxic” (C2C12 mouse myoblasts; MTT; up to 100 µM, 48 h).
`CC(=O)N[C@@H](CO)C(=O)N[C@@H](CC(=O)O)C(=O)N[C@@H](CCCCNC(=O)CCCC[C@@H]1SC[C@@H]2NC(=O)N[C@@H]21)C(=O)N1CCC[C@H]1C(=O)O` gave a cellular uptake of 26 ± 2.7% (A549; flow cytometry; 1 mg/mL, 2 h, serum-free, added: nystatin 5 mg/mL; baseline: untreated).
`CO/C(=C\C(=O)c1ccc2occc2c1OC)c1ccccc1` gave a viability of 98.4 ± 3.1% (differentiated SH-SY5Y; MTT; 10 µM; baseline: control).
With `COc1cc2c(cc1OC)C(=O)C(=Cc1ccc(N3CCN(C)CC3)cc1)C2` the LD50 was 24 µM (B16; cell viability, MTT; 48 h).
With `CCCCn1cc(C(=O)O)c(=O)c2cc(F)c(Nc3cccc(Cl)c3)c(N)c21` the IC50 was 2.3 ± 0.07 µg/mL (PANC-1; cell growth, SRB; 72 h).
With `Nc1ncnc2c1c(Cl)cn2[C@@H]1O[C@H](CO)[C@@H](O)[C@H]1O` the EC50 was 13 ± 6 µM (MRC-5 SV2; cytotoxicity, resazurin; medium with 5% FBS; 72 h).
`NCCCC[C@H](NC(=O)[C@H](CCCCN)NC(=O)[C@H](Cc1ccccc1)NC(=O)[C@H](Cc1ccccc1)NC(=O)CCCc1ccc2ccc3cccc4ccc1c2c34)C(N)=O` — result for cytotoxicity: “not toxic” (NIH/3T3; MTT; concentration not given, 24 h, normoxia).
`COC(=O)C1CN1S(=O)(=O)c1cccc(C)c1` (centres unmarked) has an IC50 of 190 ± 3 µM (Balb/c 3T3 fibroblasts; cytotoxicity, neutral red uptake; DMEM with 5% FBS; 24 h).
`CCCCn1cc(C(=O)O)c(=O)c2cc(F)c(Nc3ccccc3Cl)c([N+](=O)[O-])c21` has an IC50 of 225 µM (K562; cell growth or viability, SRB).
`COC(=O)C1CN1S(=O)(=O)c1ccc(OC)cc1` (centres unmarked) gave an IC50 of 1250 ± 191 µM (Balb/c 3T3 fibroblasts; cytotoxicity, neutral red uptake; DMEM with 5% FBS; 24 h).
`CN(CC(=O)N(Cc1ccc(C2CCCCC2)cc1)c1ccc(C(=O)O)cc1)S(=O)(=O)c1c(F)c(F)c(F)c(F)c1F` gave a half-life of ≤ 10 min (CD-1 mouse hepatocytes).
For `N=C(N)c1ccc2nc(-c3ccc(-c4nc5ccc(C(=N)N)cc5[nH]4)[se]3)[nH]c2c1`, “maximum non-toxic concentration” read > 10 µM (HEK293 cells; viability, resazurin reduction; 24 h, 10% fetal bovine serum; up to).
Under cytotoxicity, `CC[C@H](C)[C@H](NC(=O)CNC(=O)[C@H](CCCNC(=N)N)NC(=O)[C@H](CCCCN)NC(=O)CNC(=O)[C@H](CC(N)=O)NC(=O)CNC(=O)CNC(=O)CNC(=O)[C@H](CC(C)C)NC(=O)[C@H](C)NC(=O)CNC(=O)[C@H](Cc1c[nH]c2ccccc12)NC(=O)[C@H](Cc1ccc(O)cc1)NC(=O)CNC(=O)[C@H](CCCNC(=N)N)NC(=O)[C@H](CCSC)NC(=O)CNC(=O)[C@H](CCCCN)NC(=O)[C@H](CC(N)=O)NC(=O)[C@H](Cc1ccccc1)NC(=O)[C@H](CCCCN)NC(=O)[C@@H](N)CC(N)=O)C(=O)N[C@@H](CCSC)C(=O)NCC(=O)N[C@@H](Cc1ccc(O)cc1)C(=O)N[C@@H](CC(=O)O)C(=O)O` is recorded as “not toxic” (SK-BR-3; MTT; 1 nM to 10 µM, 24 h).
`CC[C@H](C)[C@H](NC(=O)[C@H](CCCCN)NC(=O)[C@H](C)NC(=O)[C@H](CCCNC(=N)N)NC(=O)[C@H](CCCCN)NC(=O)[C@H](CC(N)=O)NC(=O)[C@H](CCC(N)=O)NC(=O)[C@H](Cc1ccccc1)NC(=O)[C@H](Cc1c[nH]c2ccccc12)NC(=O)[C@@H](NC(=O)[C@H](CCCCN)NC(=O)[C@@H](NC(=O)[C@H](CCC(N)=O)NC(=O)[C@H](CO)NC(=O)CNC(=O)CNC(=O)CNC(=O)CNC(=O)CCCC[C@@H]1SC[C@@H]2NC(=O)N[C@@H]21)[C@@H](C)CC)[C@@H](C)CC)C(=O)N[C@@H](CCCCN)C(=O)N[C@@H](CCCCN)C(N)=O` gave an internalization ratio of 5 (Caov-3; MALDI-TOF MS; 7 µM, 1 h, 37 °C; baseline: Caov-3 over CHO-K1 and SK-OV-3).
Under “maximum nontoxic concentration”, `COc1cc(C2C3C4=[N+](CCc5cc(O)c(OC)cc54)C(c4c3ccc(OC)c4OC)C2C(=O)[O-])ccc1O` (single isomer, unassigned; (-)) is recorded as 100 µM (HEK293T-ACE2).
With `COc1c2c(cc3oc(-c4ccccc4)cc(=O)c13)OC(C)(C)C=C2` the viability was 95.3 ± 1.5% (differentiated SH-SY5Y; MTT; 10 µM; baseline: control).
`N=C(N)NCCC[C@@H]1NC(=O)[C@H](Cc2csc3ccccc23)NC(=O)[C@@H](Cc2ccccc2)NC(=O)[C@H](Cc2ccccc2)NC(=O)[C@H](CCC(=O)NCCOCCOCC(=O)N[C@@H](CCCCNC(=O)c2ccc3c(c2)C(=O)OC32c3ccc4cc(O)ccc4c3Oc3c2ccc2cc(O)ccc32)C(N)=O)NC(=O)[C@@H](CCCNC(=N)N)NC(=O)[C@H](CCCNC(=N)N)NC(=O)[C@@H](CCCNC(=N)N)NC1=O` gave a cytosolic entry of 145 ± 21% (HeLa; cell penetration, flow cytometry; 1.0 µM, 2 h, 1% FBS; baseline: CPP12).
With `COC1(c2ccccc2)CC(=O)c2c(cc3c(c2O)C=CC(C)(C)O3)O1` (centres unmarked) the viability was 99.7 ± 3.5% (differentiated SH-SY5Y; MTT; 10 µM; baseline: control).
`C(#Cc1cncc(OC[C@@H]2CCN2)c1)c1ccccc1`: “Papp B to A” 20.7 ± 0.02 ×10⁻⁶ cm/s (Caco-2; Caco-2 permeability; 100 µM, 2 h, pH 7.4, added: verapamil 100 µM).
`CC1(C)C=Cc2c(ccc3c(=O)cc(-c4ccccc4)oc23)O1` has a viability of 79.3 ± 3% (differentiated SH-SY5Y; MTT; 100 µM; baseline: control).
Under “highest non-toxic concentration”, `Cc1nc2n(n1)C(C)(O)C([N+](=O)[O-])=NN2` (centres unmarked) is recorded as > 300 µg/mL (MDCK; MTT; 48 (unit not given)).

Some of these lines once more:
The viability of `COc1c(C(=O)/C=C/c2ccccc2)ccc2occc12` is reported as 105 ± 3.5% (differentiated SH-SY5Y; MTT; 1 µM; baseline: control).
With `COC1(c2ccccc2)CC(=O)c2c(cc3c(c2O)C=CC(C)(C)O3)O1` (centres unmarked) the viability was 99.7 ± 3.5% (differentiated SH-SY5Y; MTT; 10 µM; baseline: control).
Under cytotoxicity, `CC[C@H](C)[C@H](NC(=O)CNC(=O)[C@H](CCCNC(=N)N)NC(=O)[C@H](CCCCN)NC(=O)CNC(=O)[C@H](CC(N)=O)NC(=O)CNC(=O)CNC(=O)CNC(=O)[C@H](CC(C)C)NC(=O)[C@H](C)NC(=O)CNC(=O)[C@H](Cc1c[nH]c2ccccc12)NC(=O)[C@H](Cc1ccc(O)cc1)NC(=O)CNC(=O)[C@H](CCCNC(=N)N)NC(=O)[C@H](CCSC)NC(=O)CNC(=O)[C@H](CCCCN)NC(=O)[C@H](CC(N)=O)NC(=O)[C@H](Cc1ccccc1)NC(=O)[C@H](CCCCN)NC(=O)[C@@H](N)CC(N)=O)C(=O)N[C@@H](CCSC)C(=O)NCC(=O)N[C@@H](Cc1ccc(O)cc1)C(=O)N[C@@H](CC(=O)O)C(=O)O` is recorded as “not toxic” (SK-BR-3; MTT; 1 nM to 10 µM, 24 h).
With `COc1c2c(cc3oc(-c4ccccc4)cc(=O)c13)OC(C)(C)C=C2` the viability was 95.3 ± 1.5% (differentiated SH-SY5Y; MTT; 10 µM; baseline: control).
